Measurements from different studies.
Lines come from different studies, so protocols differ. Several values in a cell are separate wells, animals, samples, runs or records. ± marks the error that the study gave.

| Structure (SMILES) | test | test system | conditions | scale | quantity | value |
| --- | --- | --- | --- | --- | --- | --- |
| CC[C@H](C)[C@H](NC(=O)[C@H](CCCCN)NC(=O)CNC(=O)[C@H](CC(C)C)NC(=O)[C@H](Cc1ccccc1)NC(=O)[C@H](CCCCN)NC(=O)[C@H](CO)NC(=O)[C@H](Cc1ccccc1)NC(=O)[C@H](Cc1c[nH]c2ccccc12)NC(=O)[C@H](CCC(N)=O)NC(=O)[C@@H](NC(=O)[C@H](Cc1ccccc1)NC(=O)CCCCCNC(=O)CN1CCN(CC(=O)O)CCN(CC(=O)O)CCN(CC(=O)O)CC1)C(C)C)C(=O)N[C@@H](CCC(=O)O)C(=O)N1CCC[C@H]1C(=O)N[C@@H](CC(=O)O)C(=O)N[C@H](C(=O)N[C@@H](CO)C(=O)N[C@@H](CCC(N)=O)C(=O)N[C@H](C(=O)N[C@@H](CCC(N)=O)C(=O)N[C@@H](CC(=O)O)C(=O)N1CCC[C@H]1C(=O)N[C@@H](CC(N)=O)C(=O)N[C@@H](CC(=O)O)C(=O)N[C@@H](CCC(N)=O)C(=O)N[C@@H](Cc1ccc(O)cc1)C(=O)N[C@@H](CCC(=O)O)C(=O)N1CCC[C@H]1C(=O)N[C@@H](Cc1ccccc1)C(=O)O)C(C)C)C(C)C [copper-64 labelled] |  | C57BL/6 male mouse, tumour-naive, large intestine | 4 h |  | tissue uptake | 13.8 ± 1.3 %ID/g |
| O=C(c1cc(Cc2n[nH]c(=O)c3ccccc23)ccc1F)N1CC(CNC2CC2)C1 |  | Caco-2 |  |  | Papp | 10.8 ×10⁻⁶ cm/s |
| CC(C)=CCC/C(C)=C/CCn1cc(CC(C)(P(=O)(O)O)P(=O)(O)O)nn1 |  | mouse CD-1 | intravenous, 0.3 mg/kg, 2 h | relative to: dose | biliary excretion | 0.51% |
| CC(C)C[C@H](NC(=O)[C@@H](NC(=O)[C@H](CCCNC(=N)N)NC(=O)[C@H](CCC(N)=O)NC(=O)[C@H](Cc1ccccc1)NC(=O)[C@H](Cc1ccc(O)cc1)NC(=O)[C@H](CC(N)=O)NC(=O)[C@H](Cc1c[nH]c2ccccc12)NC(=O)[C@@H](NC(=O)[C@H](CCCNC(=N)N)NC(=O)[C@H](CCCCN)NC(=O)[C@@H](N)Cc1ccccc1)C(C)C)C(C)C)C(=O)N[C@H](C(=O)N[C@@H](CCCCN)C(=O)N[C@@H](CCCCN)C(=O)N[C@@H](Cc1ccc(O)cc1)C(N)=O)C(C)C | reversed-phase UPLC | C18 column, TFA |  |  | elution acetonitrile content | 45.3% |
| CC(C)[C@@H]1NC(=O)CNC(=O)[C@H](CC(N)=O)NC(=O)[C@H](CCCNC(=N)N)NC(=O)[C@H](Cc2ccc(O)cc2)NC(=O)[C@H](C(C)C)NC(=O)[C@@H](NC(=O)[C@@H](NC(=O)[C@H](CC(N)=O)NC(=O)[C@H](Cc2c[nH]c3ccccc23)NC(=O)[C@H](C)NC(=O)[C@H](Cc2ccccc2)NC(=O)CNC(=O)[C@H](CCCCN)NC(=O)[C@H](Cc2ccccc2)NC(=O)[C@H](Cc2ccccc2)NC(=O)[C@H](CCCCN)NC(=O)OCC2c3ccccc3-c3ccccc32)C(C)C)CSSC[C@@H](C(=O)N[C@@H](Cc2c[nH]cn2)C(=O)N[C@@H](CCCNC(=N)N)C(=O)N[C@@H](CCCNC(=N)N)C(=O)N[C@@H](C)C(=O)N[C@@H](CC(N)=O)C(N)=O)NC(=O)[C@H](C(C)C)NC(=O)[C@H](CCCNC(=N)N)NC1=O |  | ICR mouse | ip, 10 mg/kg | direction not given | group interaction score | 0 |
| CSCC[C@H](N)C(=O)N[C@@H](C)C(=O)N[C@@H](CCCNC(=N)N)C(=O)N[C@@H](CCCNC(=N)N)C(=O)N[C@@H](CC(=O)O)C(=O)N[C@@H](CCCCN)C(=O)N[C@H](C(=O)N[C@@H](CC(=O)O)C(=O)N[C@@H](Cc1ccccc1)C(=O)N[C@@H](C)C(=O)N[C@@H](CCCNC(=N)N)C(=O)N[C@@H](CCCNC(=N)N)C(=O)N[C@@H](CCCNC(=N)N)C(=O)N[C@@H](CCCNC(=N)N)C(=O)NCCCCCC(=O)NCCCCC(NC(=O)CCCCCNC(=O)[C@H](CCCNC(=N)N)NC(=O)[C@H](CCCNC(=N)N)NC(=O)[C@H](CCCNC(=N)N)NC(=O)[C@H](CCCNC(=N)N)NC(=O)[C@H](C)NC(=O)[C@H](Cc1ccccc1)NC(=O)[C@H](CC(=O)O)NC(=O)[C@@H](NC(=O)[C@H](CCCCN)NC(=O)[C@H](CC(=O)O)NC(=O)[C@H](CCCNC(=N)N)NC(=O)[C@H](CCCNC(=N)N)NC(=O)[C@H](C)NC(=O)[C@@H](N)CCSC)[C@@H](C)O)C(=O)NCCCCC(NC(=O)C(CCCCNC(=O)CCCCCNC(=O)[C@H](CCCNC(=N)N)NC(=O)[C@H](CCCNC(=N)N)NC(=O)[C@H](CCCNC(=N)N)NC(=O)[C@H](CCCNC(=N)N)NC(=O)[C@H](C)NC(=O)[C@H](Cc1ccccc1)NC(=O)[C@H](CC(=O)O)NC(=O)[C@@H](NC(=O)[C@H](CCCCN)NC(=O)[C@H](CC(=O)O)NC(=O)[C@H](CCCNC(=N)N)NC(=O)[C@H](CCCNC(=N)N)NC(=O)[C@H](C)NC(=O)[C@@H](N)CCSC)[C@@H](C)O)NC(=O)CCCCCNC(=O)[C@H](CCCNC(=N)N)NC(=O)[C@H](CCCNC(=N)N)NC(=O)[C@H](CCCNC(=N)N)NC(=O)[C@H](CCCNC(=N)N)NC(=O)[C@H](C)NC(=O)[C@H](Cc1ccccc1)NC(=O)[C@H](CC(=O)O)NC(=O)[C@@H](NC(=O)[C@H](CCCCN)NC(=O)[C@H](CC(=O)O)NC(=O)[C@H](CCCNC(=N)N)NC(=O)[C@H](CCCNC(=N)N)NC(=O)[C@H](C)NC(=O)[C@@H](N)CCSC)[C@@H](C)O)C(N)=O)[C@@H](C)O (stereo partly drawn) |  | C57BL/6 mouse female, brain | dose not given, 3 h | relative to: total | tissue distribution | 0.33% and 0.3% and 0.2% |
| COc1ccc(CNc2ccc3c(c2)S(=O)(=O)C=C3)cc1 | flow cytometry | male C57BL/6 mice, spleen | i.p., 10 mg/kg, 8 days | relative to: CD45+ cells | CD4+ cells | 14.7% |
| CC(C)C[C@H](NC(=O)[C@H](Cc1ccc(O)cc1)NC(=O)[C@H](Cc1c[nH]cn1)NC(=O)[C@H](CC(=O)O)NC(=O)[C@@H](NC(=O)[C@H](C)NC(=O)[C@H](CC(C)C)NC(=O)CNC(=O)CNC(=O)[C@@H](NC(=O)[C@@H](NC(=O)[C@H](CCCCN)NC(=O)CNC(=O)[C@@H](NC(=O)[C@H](CCCCN)NC(=O)[C@H](CCCCN)NC(=O)[C@H](C)NC(=O)[C@H](CCCNC(=N)N)NC(=O)[C@H](CC(N)=O)NC(=O)[C@H](Cc1ccccc1)NC(=O)[C@H](Cc1c[nH]c2ccccc12)NC(=O)[C@H](CCCCN)NC(=O)[C@H](CCCCN)NC(=O)[C@H](Cc1c[nH]c2ccccc12)NC(=O)CN)C(C)C)[C@@H](C)O)C(C)C)C(C)C)C(N)=O |  | zebrafish embryos 28 hpf, E3 medium | 24 h |  | chronic toxic concentration | 25 µM |
| C=Cc1c(C)c2cc3nc(c(CC(=O)[O-])c4[n-]c(cc5nc(cc1[n-]2)C(C)=C5CC)c(C)c4C(=O)[O-])C(CCC(=O)[O-])C3C.[Cu+2].[Na+].[Na+].[Na+] (stereo not drawn) |  | Wistar rat, female | oral, 1000 mg/kg daily, 28 days |  | serum AST | 112 ± 32.9 U/L |
| Cn1nc(NS(C)(=O)=O)c2c(Cl)ccc(-n3c([C@H](Cc4cc(F)cc(F)c4)NC(=O)Cn4nc(C(F)F)c5c4C(F)(F)[C@@H]4C[C@H]54)nc4nc(OCCC(F)(F)F)ccc4c3=O)c21 |  | human, plasma | oral, 200 mg single dose, tablet, geometric mean |  | AUC(0-inf) | 6390 ng·h/mL |
| O=C1NC2(CC2)COc2ncc(F)cc2[C@H]2COCCN2c2ccn3ncc1c3n2 |  | Sprague-Dawley rat, female, ovaries | oral, 20 mg/kg/day, 4 weeks |  | organ weight | 0.127 ± 0.023 g |
| CC(C)C[C@H](NC(=O)[C@@H](N)CO)C(=O)N[C@@H](Cc1c[nH]c2ccccc12)C(=O)N[C@@H](CCC(=O)O)C(=O)N[C@@H](CC(N)=O)C(=O)N[C@@H](Cc1ccccc1)C(=O)N[C@@H](CCCCN)C(=O)N[C@@H](CC(N)=O)C(=O)N[C@@H](C)C(=O)NCC(=O)N[C@@H](CCCCN)C(N)=O |  | horse erythrocytes | 2 h, 37 °C | relative to: Triton X-100 | HC50 | > 128 µM |

For quick reference, copied from above:
| Structure (SMILES) | test | test system | conditions | scale | quantity | value |
| --- | --- | --- | --- | --- | --- | --- |
| Cn1nc(NS(C)(=O)=O)c2c(Cl)ccc(-n3c([C@H](Cc4cc(F)cc(F)c4)NC(=O)Cn4nc(C(F)F)c5c4C(F)(F)[C@@H]4C[C@H]54)nc4nc(OCCC(F)(F)F)ccc4c3=O)c21 |  | human, plasma | oral, 200 mg single dose, tablet, geometric mean |  | AUC(0-inf) | 6390 ng·h/mL |
